Measured values pooled from the literature.
Lines come from different studies, so protocols differ.
Target: Phosphorylase b kinase gamma catalytic chain, skeletal muscle/heart isoform (PHKG1, Homo sapiens, UniProt Q16816)

SMILES | test | test system | setting | scale | measurement | result
C=CC(=O)Nc1cc(-c2nn(C3CCN(CCNC(=O)[C@H](C)CCC45CC6CC(CC(C6)C4)C5)CC3)c3ncnc(N)c23)ccc1Oc1ccccc1 | inhibitor, KiNativ profiling | biochemical | 2 µM |  | inhibition | 28.7%
CCN1CCN(Cc2ccc(C(=O)Nc3ccc(C)c(NCc4cnc5[nH]ccc5c4OC)c3)cc2C(F)(F)F)CC1 | binding, competition with immobilised ligand |  | 1 µM |  | remaining binding | 100%
CCn1cc(C(=O)O)c(=O)c2c(N)c(F)c(NC3CCCCC3)cc21 | kinase activity |  | 0.1 µM, together with: ATP at Km |  | inhibition | -4.2%
Cc1cnc2nc1Nc1cccc(c1)COC/C=C/COCc1cc(ccc1OCCN1CCOCC1)N2 | binding |  | 0.1 µM |  | remaining binding | 100%
CNC1C[S+]2CC[S+]3CC[S+](C1)[Ru-4]321([N]=C=S)[n]2c3ccc(OC)cc3c3c4c(c5cc(F)c[n+]1c5c32)C(=O)NC4=O (centres unmarked) | KinomeScan |  | 0.1 µM | relative to: untreated | remaining binding | 56%
C=CC(=O)N1Cc2nc(-c3cc(-c4cc(Cl)cnc4Cl)c(F)cc3F)n(-c3ccncn3)c2C1 | cell-free assay, inhibitor |  | 1 µM |  | inhibition | 0.4%
COc1cc(Nc2nccc(-c3cnn4nc(OC)ccc34)n2)cc(C(F)(F)F)c1 | binding, competition with immobilised ligand |  | 1 µM |  | remaining binding | 91%
NC(=O)[C@@H](O)C[C@H]1CCc2sc3ncnc(O[C@H]4CC[C@H](N5CCOCC5)CC4)c3c21 | enzyme activity, inhibitor |  | 10 µM |  | inhibition | 41%
CN1CC[C@@H](COc2cnc(C#N)cc2-c2ccn3nc(NC(=O)C4CC4)cc3c2)C1 | enzyme activity, inhibitor |  | 1 µM |  | inhibition | 6%
C=CC(=O)Nc1cccc(-c2cnc3[nH]cc(C(=O)NC(C)(C)C)c3n2)c1 | enzyme activity, inhibitor |  | 0.1 µM |  | inhibition | -3%
Cc1cccc(O[C@H]2CCC[C@@H](C(C)CNCc3ccncc3)C2)c1 (relative stereo) | enzyme activity, inhibitor |  | 10 µM |  | inhibition | -12%
Nc1nc(Nc2ccccc2)sc1C(=O)c1ccccc1 | enzyme activity, inhibitor |  | 10 µM |  | remaining activity | 74%
C=CC(=O)N1CCCC(n2c(=O)c3ncccc3n(Cc3ccc(Oc4ccccc4)cc3)c2=O)C1 (centres unmarked) | cell-free assay, competition with immobilised ligand |  | 1 µM |  | remaining binding | 76%
C=CC(=O)N1CCc2ccc(-n3c(=O)ccc4cnc5ccc(-c6cnn(C)c6)cc5c43)cc21 | KINOMEscan |  | 1 µM | relative to: DMSO control | remaining binding | 100%

A few entries again:
SMILES | test | test system | setting | scale | measurement | result
NC(=O)[C@@H](O)C[C@H]1CCc2sc3ncnc(O[C@H]4CC[C@H](N5CCOCC5)CC4)c3c21 | enzyme activity, inhibitor |  | 10 µM |  | inhibition | 41%
